Assay results from different studies.
Protocols differ between the studies behind these lines. ± marks the error that the study gave.
ampC: Beta-lactamase (ampC, Escherichia coli K-12, UniProt P00811)
Sequence of UniProt P00811 (whole entry, looked up): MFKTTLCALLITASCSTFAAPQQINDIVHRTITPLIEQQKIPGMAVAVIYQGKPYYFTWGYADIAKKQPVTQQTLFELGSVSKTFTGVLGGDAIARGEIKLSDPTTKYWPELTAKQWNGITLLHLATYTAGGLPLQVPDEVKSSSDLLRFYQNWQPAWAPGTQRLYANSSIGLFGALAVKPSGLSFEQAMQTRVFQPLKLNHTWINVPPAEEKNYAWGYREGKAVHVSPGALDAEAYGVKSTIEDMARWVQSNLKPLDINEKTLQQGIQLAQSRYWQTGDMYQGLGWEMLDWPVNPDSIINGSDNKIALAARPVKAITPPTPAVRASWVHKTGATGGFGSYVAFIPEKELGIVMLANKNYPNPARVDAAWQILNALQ
HLA class I histocompatibility antigen, A alpha chain allele A*24:02: HLA class I histocompatibility antigen, A alpha chain, allele A*24:02 (Homo sapiens, UniProt P04439)
PLCG2 SH2 domain: 1-phosphatidylinositol 4,5-bisphosphate phosphodiesterase gamma-2, SH2 domain (PLCG2, Homo sapiens, UniProt P16885)
Sequence of UniProt P16885 (whole entry, looked up): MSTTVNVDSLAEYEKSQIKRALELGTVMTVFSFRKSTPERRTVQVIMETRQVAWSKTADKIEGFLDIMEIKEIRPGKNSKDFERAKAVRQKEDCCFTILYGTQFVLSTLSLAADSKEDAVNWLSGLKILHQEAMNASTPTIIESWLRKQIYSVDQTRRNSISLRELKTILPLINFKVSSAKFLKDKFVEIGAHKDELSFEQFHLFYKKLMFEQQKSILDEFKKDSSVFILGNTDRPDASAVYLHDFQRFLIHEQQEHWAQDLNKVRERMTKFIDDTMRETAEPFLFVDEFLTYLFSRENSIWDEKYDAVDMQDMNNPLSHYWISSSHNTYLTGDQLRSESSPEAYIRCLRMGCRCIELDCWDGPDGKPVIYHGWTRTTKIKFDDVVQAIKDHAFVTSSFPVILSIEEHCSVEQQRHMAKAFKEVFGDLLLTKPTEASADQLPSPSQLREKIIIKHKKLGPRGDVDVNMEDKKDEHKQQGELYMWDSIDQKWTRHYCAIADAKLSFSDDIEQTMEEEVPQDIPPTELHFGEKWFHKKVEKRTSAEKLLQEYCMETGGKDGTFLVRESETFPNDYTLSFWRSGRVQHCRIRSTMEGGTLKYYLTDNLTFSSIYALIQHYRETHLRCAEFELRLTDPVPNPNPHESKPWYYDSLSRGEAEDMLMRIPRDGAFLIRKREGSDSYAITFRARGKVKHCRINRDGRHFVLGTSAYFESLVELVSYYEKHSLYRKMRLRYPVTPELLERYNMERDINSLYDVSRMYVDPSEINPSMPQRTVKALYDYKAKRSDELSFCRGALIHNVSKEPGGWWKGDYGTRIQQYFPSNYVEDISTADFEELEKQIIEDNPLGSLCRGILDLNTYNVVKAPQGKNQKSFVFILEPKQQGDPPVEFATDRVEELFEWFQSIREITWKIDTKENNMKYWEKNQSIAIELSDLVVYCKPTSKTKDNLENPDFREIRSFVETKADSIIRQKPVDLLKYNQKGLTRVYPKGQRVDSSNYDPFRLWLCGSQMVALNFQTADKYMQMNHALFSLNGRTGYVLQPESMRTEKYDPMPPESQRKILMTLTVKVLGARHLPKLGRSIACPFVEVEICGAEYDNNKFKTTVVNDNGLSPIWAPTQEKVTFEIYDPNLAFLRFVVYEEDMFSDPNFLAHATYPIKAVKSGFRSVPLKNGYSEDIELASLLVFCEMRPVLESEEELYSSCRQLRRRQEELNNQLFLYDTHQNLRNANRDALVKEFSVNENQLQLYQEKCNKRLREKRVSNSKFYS
HLA class I histocompatibility antigen, A alpha chain allele A*02:01: HLA class I histocompatibility antigen, A alpha chain, allele A*02:01 (Homo sapiens, UniProt P04439)
Sequence of UniProt P28222 (whole entry, looked up): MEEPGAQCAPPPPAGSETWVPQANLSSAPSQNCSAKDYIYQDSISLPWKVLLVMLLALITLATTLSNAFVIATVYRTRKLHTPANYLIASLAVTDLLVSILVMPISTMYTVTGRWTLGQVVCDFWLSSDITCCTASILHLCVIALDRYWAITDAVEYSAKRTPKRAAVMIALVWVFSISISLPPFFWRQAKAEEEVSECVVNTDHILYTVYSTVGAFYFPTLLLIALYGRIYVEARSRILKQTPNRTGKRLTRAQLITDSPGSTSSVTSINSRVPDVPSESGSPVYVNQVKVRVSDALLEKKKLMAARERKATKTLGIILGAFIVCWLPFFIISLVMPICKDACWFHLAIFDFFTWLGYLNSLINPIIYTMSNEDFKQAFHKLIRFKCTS
Sequence of UniProt P07947 (whole entry, looked up): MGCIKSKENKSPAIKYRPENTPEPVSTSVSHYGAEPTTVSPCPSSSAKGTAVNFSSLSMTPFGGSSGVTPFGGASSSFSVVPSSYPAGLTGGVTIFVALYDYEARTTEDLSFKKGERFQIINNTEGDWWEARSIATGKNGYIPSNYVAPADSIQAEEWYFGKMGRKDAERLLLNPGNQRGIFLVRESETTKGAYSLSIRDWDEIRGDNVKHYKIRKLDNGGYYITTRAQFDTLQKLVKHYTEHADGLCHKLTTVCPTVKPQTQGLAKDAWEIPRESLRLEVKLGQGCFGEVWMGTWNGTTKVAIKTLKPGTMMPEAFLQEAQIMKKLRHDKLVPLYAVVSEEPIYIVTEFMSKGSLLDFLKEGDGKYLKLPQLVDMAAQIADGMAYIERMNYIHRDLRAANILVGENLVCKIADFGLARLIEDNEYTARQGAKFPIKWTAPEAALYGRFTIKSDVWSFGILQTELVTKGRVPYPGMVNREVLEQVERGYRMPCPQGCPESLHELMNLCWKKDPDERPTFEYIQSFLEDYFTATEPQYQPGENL
Sequence of UniProt P51452 (whole entry, looked up): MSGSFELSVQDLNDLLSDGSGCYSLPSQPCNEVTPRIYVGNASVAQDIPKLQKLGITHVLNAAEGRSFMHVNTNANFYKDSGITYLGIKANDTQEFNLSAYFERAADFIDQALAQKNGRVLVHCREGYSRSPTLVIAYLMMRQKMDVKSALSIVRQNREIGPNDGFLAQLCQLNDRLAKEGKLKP
Sequence of UniProt P03023 (whole entry, unmodified, looked up): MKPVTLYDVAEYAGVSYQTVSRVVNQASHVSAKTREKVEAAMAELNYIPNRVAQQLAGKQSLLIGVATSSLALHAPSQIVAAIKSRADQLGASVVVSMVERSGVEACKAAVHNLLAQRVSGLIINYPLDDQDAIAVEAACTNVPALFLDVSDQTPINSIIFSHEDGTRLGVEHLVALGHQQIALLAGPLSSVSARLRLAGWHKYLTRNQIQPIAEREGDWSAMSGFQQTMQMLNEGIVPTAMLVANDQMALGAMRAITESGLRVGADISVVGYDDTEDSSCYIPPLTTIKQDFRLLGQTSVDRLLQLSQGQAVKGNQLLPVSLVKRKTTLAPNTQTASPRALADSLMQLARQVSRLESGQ
Sequence of UniProt P51532 (whole entry, looked up): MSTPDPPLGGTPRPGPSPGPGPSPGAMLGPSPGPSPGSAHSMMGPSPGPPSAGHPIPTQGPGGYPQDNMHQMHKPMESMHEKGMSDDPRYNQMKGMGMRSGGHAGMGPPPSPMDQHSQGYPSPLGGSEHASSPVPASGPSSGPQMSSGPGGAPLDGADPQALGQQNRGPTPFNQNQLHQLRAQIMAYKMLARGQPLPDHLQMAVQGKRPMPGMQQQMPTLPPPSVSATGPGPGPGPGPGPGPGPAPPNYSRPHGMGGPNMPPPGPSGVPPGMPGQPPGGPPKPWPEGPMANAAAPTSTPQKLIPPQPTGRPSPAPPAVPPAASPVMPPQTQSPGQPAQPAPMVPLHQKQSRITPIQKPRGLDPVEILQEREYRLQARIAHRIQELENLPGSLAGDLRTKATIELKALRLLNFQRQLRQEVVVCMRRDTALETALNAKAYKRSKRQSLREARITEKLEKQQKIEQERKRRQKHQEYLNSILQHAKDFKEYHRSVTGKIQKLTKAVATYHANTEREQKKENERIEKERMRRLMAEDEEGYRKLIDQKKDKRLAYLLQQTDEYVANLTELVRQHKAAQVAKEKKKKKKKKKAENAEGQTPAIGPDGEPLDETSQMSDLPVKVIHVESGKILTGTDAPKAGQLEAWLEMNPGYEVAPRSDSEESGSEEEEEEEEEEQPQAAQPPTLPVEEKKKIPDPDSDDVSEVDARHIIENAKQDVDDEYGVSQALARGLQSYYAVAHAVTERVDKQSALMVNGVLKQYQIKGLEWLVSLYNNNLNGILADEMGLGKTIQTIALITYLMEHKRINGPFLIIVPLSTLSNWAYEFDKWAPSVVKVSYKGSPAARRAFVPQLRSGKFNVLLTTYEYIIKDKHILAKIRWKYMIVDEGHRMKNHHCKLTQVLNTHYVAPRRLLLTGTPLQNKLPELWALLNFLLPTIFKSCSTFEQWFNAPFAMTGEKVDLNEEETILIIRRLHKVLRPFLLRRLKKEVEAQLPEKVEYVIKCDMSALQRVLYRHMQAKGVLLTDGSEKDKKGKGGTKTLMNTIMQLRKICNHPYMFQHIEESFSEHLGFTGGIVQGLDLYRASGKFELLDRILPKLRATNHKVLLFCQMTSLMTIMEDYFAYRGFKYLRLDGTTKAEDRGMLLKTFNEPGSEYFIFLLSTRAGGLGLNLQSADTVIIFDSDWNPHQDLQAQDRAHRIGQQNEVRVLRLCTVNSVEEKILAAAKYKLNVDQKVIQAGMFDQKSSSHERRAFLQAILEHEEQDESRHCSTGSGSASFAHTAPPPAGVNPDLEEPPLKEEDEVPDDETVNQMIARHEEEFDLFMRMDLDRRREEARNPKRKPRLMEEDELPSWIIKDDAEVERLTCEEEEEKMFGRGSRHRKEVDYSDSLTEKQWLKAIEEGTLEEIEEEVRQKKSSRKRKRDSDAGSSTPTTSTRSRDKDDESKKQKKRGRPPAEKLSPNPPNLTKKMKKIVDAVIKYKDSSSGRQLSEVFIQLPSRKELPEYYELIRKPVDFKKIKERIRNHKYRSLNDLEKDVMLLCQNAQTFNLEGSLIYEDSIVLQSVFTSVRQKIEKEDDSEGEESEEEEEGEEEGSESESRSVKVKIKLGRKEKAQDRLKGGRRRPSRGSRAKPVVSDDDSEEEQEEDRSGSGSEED

`COC(=O)C(Cc1cccs1)NS(=O)(=O)c1cccc(Cl)c1O` (stereo not drawn) gave a Ki of 168000 nM (ampC).
`CC(C)C[C@H](NC(=O)[C@@H](N)Cc1ccccc1)C(=O)N[C@@H](Cc1ccccc1)C(=O)N1CCC[C@H]1C(=O)N[C@@H](Cc1c[nH]cn1)C(=O)N[C@@H](CCC(N)=O)C(=O)N[C@@H](Cc1ccc(O)cc1)C(=O)N[C@@H](CO)C(=O)N[C@@H](Cc1ccccc1)C(=O)O` gave an IC50 of 378 nM (HLA class I histocompatibility antigen, A alpha chain allele A*24:02; binding).
With `COc1ccc(N=Nc2ccc3[nH]cc(CCN(C)C)c3c2)cc1` the Ki was 16.3 nM (HTR1B (Homo sapiens, UniProt P28222); binding, radioligand binding; ambient light).
`COc1cc(Nc2ncc(F)c(Nc3ccc4c(n3)NC(=O)C(C)(C)O4)n2)cc(OC)c1OC` gave an IC50 of over 10000 nM (DUSP3 (Homo sapiens, UniProt P51452); VHR).
With `CSCC[C@H](NC(=O)c1ccc2c(c1)C(=O)OC21c2ccc(N(C)C)cc2Oc2cc(N(C)C)ccc21)C(=O)N[C@@H](CO)C(=O)N[C@@H](CCCNC(=N)N)C(=O)N[C@@H](CC(=O)O)C(=O)N[C@H](C(=O)N[C@@H](Cc1ccc(O)cc1)C(=O)N[C@@H](CO)C(=O)N[C@H](C(=O)N[C@@H](CC(=O)O)C(=O)N[C@@H](Cc1ccc(OP(=O)(O)O)cc1)C(=O)N[C@@H](Cc1ccc(O)cc1)C(=O)N[C@@H](CCCNC(=N)N)C(=O)N[C@H](C(=O)NCC(=O)NCC(=O)N[C@@H](Cc1c[nH]cn1)C(=O)N[C@H](C(=O)N[C@@H](CC(=O)O)C(=O)O)[C@@H](C)O)C(C)C)[C@@H](C)O)C(C)C` the Kd was 1700 nM (PLCG2 SH2 domain; binding).
With `CC[C@H](C)[C@H](NC(=O)[C@@H](N)CCSC)C(=O)N[C@@H](Cc1ccccc1)C(=O)N[C@@H](CC(=O)O)C(=O)N[C@@H](CCCCN)C(=O)N1CCC[C@H]1C(=O)N[C@H](C(=O)N[C@@H](Cc1ccc(O)cc1)C(=O)N[C@@H](Cc1ccccc1)C(=O)O)C(C)C` the IC50 was 1310 nM (HLA class I histocompatibility antigen, A alpha chain allele A*24:02; binding).
With `CC(C)Oc1ccc(NS(=O)(=O)c2cc(Cl)cc(Cl)c2O)cc1C#N` the Ki was 40400 nM (ampC).
The IC50 of `C[C@H]1CN(c2n[nH]c3nc(N[C@H]4CC[C@H](NS(=O)(=O)CCC(F)(F)F)CC4)ncc23)CCO1` is reported as over 100000 nM (Cytochrome P450 3A4 (CYP3A4, Homo sapiens, UniProt P08684); enzyme activity, inhibitor; together with: atorvastatin, nifedipine, midazolam).
The IC50 of `CSCC[C@H](NC(=O)[C@@H](N)CCCNC(=N)N)C(=O)N[C@@H](Cc1ccccc1)C(=O)N[C@@H](CCCCN)C(=O)N[C@@H](Cc1c[nH]cn1)C(=O)N1CCC[C@H]1C(=O)N[C@@H](CC(C)C)C(=O)N[C@@H](CCC(N)=O)C(=O)N[C@@H](Cc1ccccc1)C(=O)O` is reported as 89 nM (HLA class I histocompatibility antigen, A alpha chain allele A*24:02; binding).
The Kd of `CC[C@H](C)[C@H](NC(=O)c1ccc2c(c1)C(=O)OC21c2ccc(N(C)C)cc2Oc2cc(N(C)C)ccc21)C(=O)N[C@@H](CCC(=O)O)C(=O)N[C@@H](CO)C(=O)N[C@@H](CO)C(=O)N[C@@H](CC(N)=O)C(=O)N[C@@H](Cc1ccc(O)cc1)C(=O)N[C@@H](CCSC)C(=O)N[C@@H](C)C(=O)N1CCC[C@H]1C(=O)N[C@@H](Cc1ccc(OP(=O)(O)O)cc1)C(=O)N[C@@H](CC(=O)O)C(=O)N[C@@H](CC(N)=O)C(=O)N[C@@H](Cc1ccc(O)cc1)C(=O)N[C@H](C(=O)N1CCC[C@H]1C(=O)N[C@@H](CO)C(=O)N[C@@H](C)C(=O)N[C@@H](CC(=O)O)C(=O)O)C(C)C` is reported as 1140 nM (PLCG2 SH2 domain; binding).
The IC50 of `CC[C@H](C)[C@H](NC(=O)[C@H](CC(=O)O)NC(=O)[C@H](Cc1ccc(O)cc1)NC(=O)[C@H](CCC(N)=O)NC(=O)[C@@H](N)Cc1ccccc1)C(=O)N1CCC[C@H]1C(=O)N[C@@H](Cc1c[nH]cn1)C(=O)N[C@@H](CCC(=O)O)C(=O)N[C@@H](CCSC)C(=O)O` is reported as 218 nM (HLA class I histocompatibility antigen, A alpha chain allele A*02:01; binding).
`Cn1ncc(S(=O)(=O)NC2CCSc3ccc(F)cc32)c1C(=O)O` (stereo not drawn) has a Ki of 16800 nM (ampC).
For `CC(C)S[C@@H]1O[C@H](CO)[C@H](O)[C@H](O)[C@H]1O`, the Kd was 4200 ± 300 nM (lacI (Escherichia coli, UniProt P03023, D149A); binding, fluorescence titration; no operator DNA).
The Kd of `CSCC[C@H](NC(=O)[C@H](CC(C)C)NC(=O)[C@H](C)NC(=O)[C@H](CCCNC(=N)N)NC(=O)[C@H](Cc1ccc(OP(=O)(O)O)cc1)NC(=O)[C@H](Cc1ccccc1)NC(=O)[C@H](CC(N)=O)NC(=O)[C@H](CO)NC(=O)[C@H](CC(=O)O)NC(=O)[C@@H](NC(=O)[C@@H]1CCCN1C(=O)[C@H](CO)NC(=O)[C@@H]1CCCN1C(=O)[C@H](CC(C)C)NC(=O)c1ccc2c(c1)C(=O)OC21c2ccc(N(C)C)cc2Oc2cc(N(C)C)ccc21)[C@@H](C)O)C(=O)N[C@@H](CC(=O)O)C(=O)N[C@@H](CCC(=O)O)C(=O)N[C@@H](CCC(=O)O)C(=O)N[C@@H](CC(=O)O)C(=O)O` is reported as 724 nM (Tyrosine-protein kinase Yes, SH2 domain (YES1, Homo sapiens, UniProt P07947); binding).
For `CSCC[C@H](NC(=O)[C@@H]1CCCN1C(=O)[C@H](CCCCN)NC(=O)[C@H](CC(=O)O)NC(=O)[C@H](Cc1c[nH]c2ccccc12)NC(=O)[C@H](CCC(N)=O)NC(=O)[C@@H](N)CCCCN)C(=O)N[C@@H](Cc1ccc(O)cc1)C(=O)N[C@@H](Cc1ccc(O)cc1)C(=O)O`, the IC50 was 74900 nM (HLA class I histocompatibility antigen, A alpha chain, allele A*01:01 (Homo sapiens, UniProt P04439); binding).
With `Cc1ncsc1-c1ccc(CNC(=O)[C@@H]2C[C@@H](O)CN2C(=O)[C@@H](NC(=O)C2(F)CC2)C(C)(C)C)c(OCCOc2ccc(CN3CCN(c4cc(-c5ccccc5O)nnc4N)CC3)cc2)c1` the DC50 was 31.3 nM (SMARCA4 (Homo sapiens, UniProt P51532); degrader, immunoblot; SMARCA4 wild-type lung cancer cells; 96 h, median of twelve cell lines).
`CSCC[C@H](NC(=O)[C@@H](NC(=O)[C@@H]1CCCN1C(=O)[C@@H]1CCCN1C(=O)[C@H](CC(=O)O)NC(=O)[C@@H](NC(=O)[C@@H](N)CCCCN)C(C)C)C(C)C)C(=O)N[C@@H](CCC(=O)O)C(=O)N[C@@H](Cc1ccccc1)C(=O)O` gave an IC50 of 34400 nM (HLA class I histocompatibility antigen, A alpha chain allele A*02:01; binding).
`COC(=O)c1csc(CNS(=O)(=O)c2cc(Cl)cc(Cl)c2O)n1` gave a Ki of 69200 nM (ampC).

Repeated from above:
`COc1cc(Nc2ncc(F)c(Nc3ccc4c(n3)NC(=O)C(C)(C)O4)n2)cc(OC)c1OC` gave an IC50 of over 10000 nM (DUSP3 (Homo sapiens, UniProt P51452); VHR).
The Kd of `CC[C@H](C)[C@H](NC(=O)c1ccc2c(c1)C(=O)OC21c2ccc(N(C)C)cc2Oc2cc(N(C)C)ccc21)C(=O)N[C@@H](CCC(=O)O)C(=O)N[C@@H](CO)C(=O)N[C@@H](CO)C(=O)N[C@@H](CC(N)=O)C(=O)N[C@@H](Cc1ccc(O)cc1)C(=O)N[C@@H](CCSC)C(=O)N[C@@H](C)C(=O)N1CCC[C@H]1C(=O)N[C@@H](Cc1ccc(OP(=O)(O)O)cc1)C(=O)N[C@@H](CC(=O)O)C(=O)N[C@@H](CC(N)=O)C(=O)N[C@@H](Cc1ccc(O)cc1)C(=O)N[C@H](C(=O)N1CCC[C@H]1C(=O)N[C@@H](CO)C(=O)N[C@@H](C)C(=O)N[C@@H](CC(=O)O)C(=O)O)C(C)C` is reported as 1140 nM (PLCG2 SH2 domain; binding).
